Assay results gathered from unrelated publications.
Each line is one published result; not all experiments were run side by side.

The MIC of `CC[C@@H](C)[C@@H](NC(=O)[C@@H](C)NC(=O)[C@@H](CCCCN)NC(=O)[C@@H](CC(C)C)NC(=O)[C@@H](C)NC(=O)[C@H](NC(=O)[C@@H](Cc1c[nH]cn1)NC(=O)[C@@H](CC(C)C)NC(=O)[C@H](NC(=O)[C@H](NC(=O)[C@@H](CCCCN)NC(=O)[C@H](NC(=O)[C@@H](C)NC(=O)[C@@H](CO)NC(=O)[C@@H](CCCCN)NC(=O)[C@@H](Cc1ccccc1)NC(=O)[C@H](NC(=O)[C@@H](CCCCN)NC(=O)[C@@H](CC(C)C)NC(=O)[C@@H](Cc1ccccc1)NC(=O)[C@@H](CO)NC(=O)[C@@H](CCCCN)NC(=O)[C@@H](Cc1c[nH]c2ccccc12)NC(=O)[C@@H](CCCCN)NC(C)=O)[C@H](C)O)C(C)C)[C@H](C)O)C(C)C)[C@H](C)O)C(=O)N[C@H](CO)C(=O)N[C@H](CO)C(N)=O` is reported as 0.7 µM (Acinetobacter baumannii; 899, Mueller-Hinton broth; 24 h, 37 °C).
With `C[C@@H](c1ccn(Cc2cc(F)cc(F)c2)n1)[C@](O)(Cn1cnnn1)c1ccc(F)cc1F` the MIC was 0.25 µg/mL (Cryptococcus neoformans; growth, broth microdilution; H99; 72 h, 30 °C, ≥50% inhibition).
`CC(=O)N[C@H](CCCCN)C(=O)N[C@H](CC(C)C)C(=O)N[C@H](CCCCN)C(=O)N[C@H](CO)C(=O)N[C@H](CC(C)C)C(=O)N[C@H](CC(C)C)C(=O)N[C@H](CCCCN)C(=O)N[C@@H](C(=O)N[C@H](CC(C)C)C(=O)N[C@H](CO)C(=O)N[C@H](CCCCN)C(=O)N[C@H](C)C(=O)N[C@H](CCCCN)C(=O)N[C@H](CCCCN)C(=O)N[C@H](CCCCN)C(=O)N[C@H](CC(C)C)C(=O)N[C@H](CC(C)C)C(=O)N[C@H](CCCCN)C(=O)N[C@@H](C(=O)N[C@H](C)C(=O)N[C@H](CC(C)C)C(=O)N[C@H](CCCCN)C(=O)N[C@H](C)C(=O)N[C@H](CC(C)C)C(=O)N[C@H](CO)C(=O)N[C@H](CCCCN)C(N)=O)[C@H](C)O)[C@H](C)O` gave an MIC of 0.3 µM (Acinetobacter baumannii; 759, Mueller-Hinton broth; 24 h, 37 °C).
`Oc1c(Cl)cc(Cl)c2cccnc12` gave an MIC of 37.4 µM (Plesiomonas shigelloides; microbial growth, agar dilution).
`C[C@@H]1C(=O)O[C@@H](C)/C=C/C=C\[C@@H](C)[C@@H]2C=C[C@@H]3C[C@]4(C)O[C@@H]4[C@@H](C)[C@H]3[C@@H]2C(=O)C(Cl)(Cl)C1=O` gave an MIC of 0.025 µg/mL (Staphylococcus aureus; microbial growth, broth dilution; NEWMAN).
The MIC of `CC(=NNC(=N)N)c1nnn(-c2ccc(C#CC3(O)CCCCC3)cc2)c1C` is reported as 8 µg/mL (Clostridioides difficile; microbial growth, broth dilution; BAA1870).
For `CCCC/C=C/C(=O)N[C@@H](Cc1cc(F)cc(F)c1)C(=O)N[C@@H](COC(=O)[C@@H]1CCCN1C(C)=O)C(=O)OC`, the MIC was about 23 µM (Mycobacterium tuberculosis; H37Rv; without verapamil).
`CC[C@@H](C)[C@@H](NC(=O)[C@@H](C)NC(=O)[C@@H](CCCCN)NC(=O)[C@@H](CC(C)C)NC(=O)[C@@H](C)NC(=O)[C@H](NC(=O)[C@@H](CCCCN)NC(=O)[C@@H](CC(C)C)NC(=O)[C@H](NC(=O)[C@@H](CCCCN)NC(=O)[C@@H](CCCCN)NC(=O)[C@@H](CCCCN)NC(=O)[C@@H](C)NC(=O)[C@@H](CCCCN)NC(=O)[C@@H](CO)NC(=O)[C@@H](Cc1ccccc1)NC(=O)[C@H](NC(=O)[C@@H](CCCCN)NC(=O)[C@@H](CC(C)C)NC(=O)[C@@H](Cc1ccccc1)NC(=O)[C@@H](CO)NC(=O)[C@@H](CCCCN)NC(=O)[C@@H](Cc1c[nH]c2ccccc12)NC(=O)[C@@H](CCCCN)NC(C)=O)[C@H](C)O)C(C)C)[C@H](C)O)C(=O)N[C@H](CO)C(=O)N[C@H](CCCCN)C(N)=O` has an MIC of 1.3 µM (Acinetobacter baumannii; 964, Mueller-Hinton broth; 24 h, 37 °C).
With `CO[C@@H](C(N)=O)[C@H](NC(=O)c1ccc(NC(=O)c2ccc([N+](=O)[O-])cc2)cc1)C(=O)Nc1ccc(C(=O)Nc2ccc(C(=O)Nc3ccc(C(=O)O)cc3)c(O)c2OC(C)C)cc1` the MIC was 32 µg/mL (Proteus mirabilis; microbial growth; DSM4479).
For `O=C(NCc1nc(-c2ccc(Br)cc2)c[nH]1)Nc1ncc(Sc2ccccn2)s1`, the MIC was 4 µM (Clostridioides difficile; broth microdilution; R20291).
`CC1(C)S[C@@H]2[C@H](NC(=O)[C@H](NC(=O)C3=C(O)C(c4ccccc4F)NC3=O)c3ccccc3)C(=O)N2[C@H]1C(=O)O` (some centres unmarked) has an MIC of 12.5 µg/mL (Escherichia coli; broth microdilution; BW25113; 18 h, with: clavulanic acid 6 µg/mL).
`Cc1c(CN(C)C(=O)/C=C/c2cnc3c(c2)CC(N)C(=O)N3)oc2ccccc12` (centres unmarked) gave an MIC of 4 µg/mL (Escherichia coli; intact outer membrane).
With `C[C@@H](c1ccn(Cc2ccc(F)c(Cl)c2)n1)[C@](O)(Cn1cnnn1)c1ccc(F)cc1F` the MIC was under 0.008 µg/mL (Cryptococcus neoformans; growth, broth microdilution; H99; 72 h, 30 °C, ≥50% inhibition).
`Oc1c(Br)ccc2cccnc12` has an MIC of 35.7 µM (Plesiomonas shigelloides; microbial growth, agar dilution).
`Oc1c(Br)cc(Br)c2nc3cc(Cc4ccccc4)ccc3nc12` gave an MIC of 0.1 to 0.78 µM (Gram-positive bacteria; range over strain panel).
The MIC of `C[C@@H](c1ccn(Cc2ccc(C(C)(C)C)cc2)n1)[C@](O)(Cn1cnnn1)c1ccc(F)cc1F` is reported as 1 µg/mL (Cryptococcus neoformans; growth, broth microdilution; H99; 72 h, 30 °C, ≥50% inhibition).
With `C/C(=N/NC(=N)N)c1nnn(-c2ccc(C#CC(C)(C)O)cc2)c1C` the MIC was 16 µg/mL (Clostridioides difficile; microbial growth, broth dilution; BAA1870).
With `C[C@@H](c1ccn(Cc2ccc(C(F)(F)F)cc2)n1)[C@](O)(Cn1cnnn1)c1ccc(F)cc1F` the MIC was under 0.008 µg/mL (Cryptococcus neoformans; growth, broth microdilution; H99; 72 h, 30 °C, ≥50% inhibition).
`C/C(=N/NC(=N)N)c1nnn(-c2ccc(C#Cc3ccsc3)cc2)c1C` gave an MIC of 32 µg/mL (Clostridioides difficile; microbial growth, broth dilution; BAA1870).
`C[C@@H](c1ccn(Cc2ccc(F)c(C(F)(F)F)c2)n1)[C@](O)(Cn1cnnn1)c1ccc(F)cc1F` has an MIC of 0.5 µg/mL (Cryptococcus neoformans; growth, broth microdilution; H99; 72 h, 30 °C, ≥50% inhibition).
`N#Cc1ccc2cccc(O)c2n1` gave an MIC of 1500 µM (Plesiomonas shigelloides; microbial growth, agar dilution).
For `CCCCn1ccc([C@H](C)[C@](O)(Cn2cnnn2)c2ccc(F)cc2F)n1`, the MIC was 0.25 µg/mL (Cryptococcus neoformans; growth, broth microdilution; H99; 72 h, 30 °C, ≥50% inhibition).
With `CC[C@@H](C)[C@@H](NC(=O)[C@@H](C)NC(=O)[C@@H](CCCCN)NC(=O)[C@@H](CC(C)C)NC(=O)[C@@H](CC(C)C)NC(=O)[C@H](NC(=O)[C@@H](CCCCN)NC(=O)[C@@H](CC(C)C)NC(=O)[C@@H](C)NC(=O)[C@@H](CCCCN)NC(=O)[C@@H](CCCCN)NC(=O)[C@@H](CCCCN)NC(=O)[C@@H](C)NC(=O)[C@@H](CCCCN)NC(=O)[C@@H](CO)NC(=O)[C@@H](Cc1ccccc1)NC(=O)[C@H](NC(=O)[C@@H](CCCCN)NC(=O)[C@@H](CC(C)C)NC(=O)[C@@H](Cc1ccccc1)NC(=O)[C@@H](CO)NC(=O)[C@@H](CCCCN)NC(=O)[C@@H](Cc1c[nH]c2ccccc12)NC(=O)[C@@H](CCCCN)NC(C)=O)[C@H](C)O)[C@H](C)O)C(=O)N[C@H](CO)C(=O)N[C@H](CCCCN)C(N)=O` the MIC was 0.7 µM (Acinetobacter baumannii; broth microdilution; ATCC 17978; 24 h, 37 °C).
`Cc1ccc(Cn2ccc([C@H](C)[C@](O)(Cn3cnnn3)c3ccc(F)cc3F)n2)cc1` gave an MIC of under 0.008 µg/mL (Cryptococcus neoformans; growth, broth microdilution; H99; 72 h, 30 °C, ≥50% inhibition).
With `N#Cc1ccc(-c2c[nH]c(CNC(=O)Nc3ncc(Sc4ccccn4)s3)n2)cc1` the MIC was 8 µM (Clostridioides difficile; broth microdilution; R20291).
With `Oc1c(Br)c(Cl)c(Br)c2nc3c(C(F)(F)F)cc(C(F)(F)F)cc3nc12` the MIC was 0.2 to 4.69 µM (Gram-positive bacteria; range over strain panel).
